Published values pooled from the literature.
Numbered parts are unrelated; each lists some results of a single study.

Series 1 — technique: protein-binding microarray; molecule type: double-stranded DNA, one strand shown; matrix: in vitro; tested at: 250 nM; notes: 60-bp whole probe; together with: salmon DNA 0.4 mg/ml; relative to: random background probes; reading: higher = stronger binding
Target: Interferon regulatory factor 5, full length, phosphomimetic (IRF5, Homo sapiens, UniProt Q13568-2, residues 1-514, K96S/S451D/S453D/S456D/S462D)
The log fluorescence of `GCCTAGCACGACGGCTTCGACTATCGGGACGTGCTAGTCTTGATTCGCTTGACGCTGCTG` is reported as 0.859 z-score.
For `GCCTAGCACCAGGGAATTCACCTGCTGACGTGCTAGGTCTTGATTCGCTTGACGCTGCTG`, the log fluorescence was -0.279 z-score.
For `GCCTAGCACGATGATTTCGGGACTGGAGACGTGCTAGTCTTGATTCGCTTGACGCTGCTG`, the log fluorescence was 2.35 z-score.
`GCCTAGCACTTAGGTTTGGGACTGGGTTAGTGCTAGGTCTTGATTCGCTTGACGCTGCTG` has a log fluorescence of -0.231 z-score.

Series 2 — technique: universal PBM; molecule type: double-stranded DNA, one strand shown; matrix: in vitro; tested at: 600 nM; reading: higher = stronger binding
Target: Sal-like protein 4, full length isoform A (SALL4, Homo sapiens, UniProt Q9UJQ4, residues 1-1053)
UniProt Q9UJQ4, sequence (whole entry, looked up): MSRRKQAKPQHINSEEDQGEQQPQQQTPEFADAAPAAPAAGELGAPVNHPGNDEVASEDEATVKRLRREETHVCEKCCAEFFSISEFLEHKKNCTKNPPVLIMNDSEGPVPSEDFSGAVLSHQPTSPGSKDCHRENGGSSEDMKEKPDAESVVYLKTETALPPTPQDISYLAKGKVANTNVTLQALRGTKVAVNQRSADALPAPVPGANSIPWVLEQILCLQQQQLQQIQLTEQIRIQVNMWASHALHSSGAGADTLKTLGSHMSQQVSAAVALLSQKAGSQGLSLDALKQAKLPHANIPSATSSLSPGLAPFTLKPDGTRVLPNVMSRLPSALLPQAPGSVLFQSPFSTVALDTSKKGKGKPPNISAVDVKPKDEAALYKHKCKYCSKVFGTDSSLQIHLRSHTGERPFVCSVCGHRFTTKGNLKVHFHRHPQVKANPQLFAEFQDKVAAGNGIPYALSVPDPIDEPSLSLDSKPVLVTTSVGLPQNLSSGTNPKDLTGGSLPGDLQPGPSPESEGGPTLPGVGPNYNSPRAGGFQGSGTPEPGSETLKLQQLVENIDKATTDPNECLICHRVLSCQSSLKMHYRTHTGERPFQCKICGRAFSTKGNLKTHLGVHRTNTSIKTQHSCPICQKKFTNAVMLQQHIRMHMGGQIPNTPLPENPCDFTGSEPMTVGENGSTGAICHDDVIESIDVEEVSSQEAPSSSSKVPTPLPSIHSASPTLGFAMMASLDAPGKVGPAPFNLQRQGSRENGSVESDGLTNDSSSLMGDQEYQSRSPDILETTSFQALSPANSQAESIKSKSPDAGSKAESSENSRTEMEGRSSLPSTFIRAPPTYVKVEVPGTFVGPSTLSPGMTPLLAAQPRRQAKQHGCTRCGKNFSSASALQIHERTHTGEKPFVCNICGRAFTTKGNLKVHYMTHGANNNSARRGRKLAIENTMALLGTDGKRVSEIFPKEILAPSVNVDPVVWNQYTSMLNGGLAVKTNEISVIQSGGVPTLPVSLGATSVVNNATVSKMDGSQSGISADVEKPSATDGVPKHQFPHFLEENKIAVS
Notes: 8-mer, flanks averaged, mean of replicates
`AGATAGAT` has an E-score of 0.0976.
For `CGCTCGAG`, the E-score was -0.169.
With `GACACGAC` the E-score was -0.00788.
`GGTTTGCA` gave an E-score of -0.132.
The E-score of `GGCGATGA` is reported as -0.177.
The E-score of `AGGAGGTA` is reported as -0.00239.

Series 3 — technique: protein binding microarray; molecule type: double-stranded DNA, one strand shown; matrix: in vitro; tested at: not given; relative to: not given; reading: higher = stronger binding
Target: Histone acetyltransferase KAT6A, winged helix 1, GST fusion (KAT6A, Homo sapiens, UniProt Q92794, residues 1-85)
Notes: 8-mer, flanks averaged, mean of 2 arrays, mostly near background
Residues (chain): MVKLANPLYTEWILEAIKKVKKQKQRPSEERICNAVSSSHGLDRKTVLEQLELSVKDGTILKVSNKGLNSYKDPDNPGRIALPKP
`AAGCTGGT` gave an E-score of -0.18.
With `ACGTTTAC` the E-score was 0.0271.
With `CGACGCAG` the E-score was 0.302.
For `CGCACCGC`, the E-score was 0.338.

Single results of other studies
The fold induction of `PhoQ, residues 284 288 289 292 302 303 SIHLQL` is reported as 5.63 (PhoP, residues 12 14 15 18 19 VHSCL (Escherichia coli, UniProt P23836); Sort-seq, refers to: YFP reporter; E. coli; PhoQ-PhoP variant library, together with: 10 µM Mg2+; relative to: high Mg2+ state, higher = stronger signaling).

Some of these lines once more (series 2):
For `CGCTCGAG`, the E-score was -0.169.
The E-score of `GGCGATGA` is reported as -0.177.
